Measurements gathered from unrelated publications.
Compare with care: the assays were run in different laboratories. “And” joins repeats or separate records; there may be more than shown.
Target: Serine/threonine-protein kinase TBK1 (TBK1, Homo sapiens, UniProt Q9UHD2)

Compound | test | system | setting | how to read | measurement | result
Cc1cccc(O[C@H]2CCC[C@@H](C(C)CNCc3ccncc3)C2)c1 (relative stereo) | enzyme activity, inhibitor |  | 1 µM |  | inhibition | -2%
CC(C)=CC1OC(C)(C)C2C=C3C(=O)C(Cl)=CC(O)C3C3C(O)C4OC4C(=O)C132 (centres unmarked) | cell-free assay, competition with immobilised ligand |  | 10 µM |  | remaining binding | 89%
O=C=[N][Ru-4]123([n]4c5ccc(O)cc5c5c6c(c7cc(F)c[n+]1c7c54)C(=O)NC6=O)[S+]1CC[S+]2CC[S+]3CC1 (centres unmarked) | enzyme activity |  | 100 nM, human enzyme, together with: 10 µM ATP | reference: untreated | remaining activity | 90%
Cc1cccc(-c2ccc3nc(NC(=O)C4CCCO4)nn3c2)c1 (centres unmarked) | enzyme activity, Dundee kinase panel |  | 10 µM |  | remaining activity | 102%
O=C(Cc1ccc(OCc2ccccc2)cc1)NC1(C(=O)O)CCN(C(=O)c2ccc(-c3cccc(Cl)c3)cc2)CC1 | enzyme activity, inhibitor |  | 10 µM |  | activity vs control | 106%
CS(=O)(=O)Nc1cccc(-c2csc3cnc(Nc4ccc(N5CCN(CCCCCOc6cccc7c6C(=O)N(C6CCC(=O)NC6=O)C7=O)CC5)cc4)nc23)c1 (centres unmarked) | probe labelling, inhibitor, KiNativ chemoproteomics | MOLT-4 | 1 µM |  | inhibition | 92.2%
Cc1cccc(-c2ccc3nc(NC(=O)C4CCCCC4)nn3c2)c1 | enzyme activity, Dundee kinase panel |  | 10 µM |  | remaining activity | 101%
NC(=O)[C@@H](O)C[C@H]1CCc2sc3ncnc(O[C@H]4CC[C@H](N5CCOCC5)CC4)c3c21 | enzyme activity, inhibitor |  | 10 µM |  | inhibition | 3%
Nc1ncc(-c2cc(-c3cnn(CC(F)(F)F)c3)ncc2F)nc1C(=O)NC1CNCC(F)C1 (centres unmarked) | enzyme activity |  | 1 µM | reference: DMSO control | remaining activity | 98.6%
CN1CC[C@@H](COc2cnc(C#N)cc2-c2ccn3nc(NC(=O)C4CC4)cc3c2)C1 | enzyme activity, inhibitor |  | 1 µM |  | inhibition | -12%
c1ccc2c(Nc3cc(C4CCC4)[nH]n3)nc(Nc3ccc4nc[nH]c4c3)nc2c1 | enzyme activity, inhibitor |  | 0.25 µM |  | remaining activity | 12%
Nc1ncc2c(n1)-c1c([nH]c3ccc(C4=CCOCC4)cc13)CCC2 | binding, competition with immobilised ligand |  | 1 µM |  | remaining binding | 100%
COc1cc(Nc2nccc(-c3cnn4nc(OC)ccc34)n2)cc(C(F)(F)F)c1 | binding, competition with immobilised ligand |  | 1 µM |  | remaining binding | 80%
CCn1cc(C(=O)O)c(=O)c2c(N)c(F)c(NC3CCCCC3)cc21 | kinase activity |  | 0.1 µM, together with: ATP at Km |  | inhibition | -13.8%
C=CC(=O)Nc1cccc(-c2cnc3[nH]cc(C(=O)NC(C)(C)C)c3n2)c1 | kinase activity |  | 0.1 µM |  | inhibition | 18% and 23%
O=C(Nc1ccc(Oc2ncnc3[nH]cc(-c4ccccc4)c23)c(F)c1)c1c2n(n(-c3cc(F)ccc3F)c1=O)CCCC2 | enzyme activity, inhibitor |  | 0.5 µM |  | inhibition | 3%
C=CC(=O)N1CCc2ccc(-n3c(=O)ccc4cnc5ccc(-c6cnn(C)c6)cc5c43)cc21 | KINOMEscan |  | 1 µM | reference: DMSO control | remaining binding | 93%
CN1CCN(Cc2ccc(-c3ccc(CO[C@H]4CCC[C@@H]4NC(=O)c4cc(-c5cnn(C)c5)cnc4N)cc3)cc2)CC1 | enzyme activity, inhibitor |  | 0.1 µM |  | inhibition | 12%
C=CC(=O)N1Cc2nc(-c3cc(-c4cc(Cl)cnc4Cl)c(F)cc3F)n(-c3ccncn3)c2C1 | cell-free assay, inhibitor |  | 1 µM |  | inhibition | 11.5%
Cc1ccc(C(=O)Nc2ccc(CN3CCN(C)CC3)c(C(F)(F)F)c2)cc1C#Cc1cnc2cccnn12 | target engagement, NanoBRET | human cells |  |  | Hill slope | -0.505
